Measured values collected from several papers.
Each line is one published result; not all experiments were run side by side.

`CC[C@H](C)[C@@H]1NC(=O)[C@@](C)(NC(=O)[C@H](CCCNC(=N)N)NC(=O)[C@H](CC(C)C)NC(=O)[C@]2(C)CCCC=CCCC[C@](C)(NC(C)=O)C(=O)N[C@@H](CC(C)C)C(=O)N[C@@H](CCC(N)=O)C(=O)N2)CCCC=CCCC[C@@](C)(C(=O)N[C@@H](CC(C)C)C(=O)N[C@@H](Cc2ccc3ccccc3c2)C(=O)NCCC(=O)NCCC(N)=O)NC(=O)[C@H](CCCNC(=N)N)NC(=O)[C@H](CCC(N)=O)NC1=O` has an AUC(0-inf) of 996000 ng·h/mL (male BALB/c mouse, plasma; intraperitoneal, 30 mg/kg).
For `FC(F)(F)Oc1ccc2[nH]c(-c3ccc(OCCN4CCOCC4)cn3)nc2c1`, the AUC(0-inf) was 0.136 µM·h (mouse, plasma; intraperitoneal, 100 mg/kg).
With `Cc1cc(NCC(=O)C(C)(C)C)c2nc(N3CCOC[C@H]3C)cc(=O)n2c1` the AUC(0-inf) was 2340 ng·h/mL (C57BL/6 mouse, plasma; intraperitoneal, 10 mg/kg, single dose).
The AUC(0-inf) of `Cn1c2cc([S+](C)[O-])sc2c2cnn(Cc3cccc(N)c3)c(=O)c21` (centres unmarked) is reported as 24400 ng·h/mL (male BALB/c mouse, plasma; oral, 10 mg/kg, single dose).
`COc1cc(OCCN2CCOCC2)cnc1-c1nc2cc(OC(F)(F)F)ccc2[nH]1` has an AUC(0-inf) of 0.037 µM·h (mouse, plasma; oral, 100 mg/kg).
`Cn1ccc(-c2cc(Cl)c(Cl)c3[nH]c4c(c23)CN(C(=O)CO)CC4)n1` has an AUC(0-inf) of 271 µM·h (C57BL/6 mouse, blood; oral, 100 mg/kg).
`COc1cnc2cccc(N3CCc4c(cc(Cn5ccnc5)cc4-c4cn(C)nc4C(F)(F)F)C3=O)c2c1` gave an AUC(0-inf) of 178000 ng·h/mL (male CD-1 mouse, plasma; intraperitoneal, 100 mg/kg).
For `Nc1ccc(-c2cc(Cl)c(Cl)c3[nH]c4c(c23)CN(C(=O)CO)CC4)cn1`, the AUC(0-inf) was 0.602 µM·h (C57BL/6 mouse, blood; intravenous, 0.5 mg/kg).
`CC[C@H](C)/C=C/C=C/C=C/C(O)=C/C(=O)C(F)(F)Cl` gave an AUC(0-inf) of 9610 ng·h/mL (female C57BL/6 mouse, plasma; oral, 25 mg/kg).
With `COc1ccc2nc(NC(c3ccc(O)cc3)P(=O)(OC)OC)sc2c1` (centres unmarked) the AUC(0-inf) was 2870 ng·h/mL (mouse, plasma; intravenous, 10 mg/kg).
The AUC(0-inf) of `O=C(O)c1ccc(/C=C2\SC(=S)N(Cc3cccc(C(F)(F)F)c3)C2=O)cc1` is reported as 8230 ng·h/mL (C57BL/6 mouse, blood; oral, 10 mg/kg).
For `Cc1cc(NC(=O)[C@H](O)c2cc(F)cc(F)c2)ccc1-c1cnc(N)c(C(=O)NC(C)C)c1`, the AUC(0-inf) was 15600 ng·h/mL (female nude mouse, plasma; oral, 30 mg/kg, single dose).
The AUC(0-inf) of `COc1cc(C2C3=C(COC3=O)N(CCO)c3cc4c(cc32)CCC4)cc(OC)c1OC` (centres unmarked) is reported as 2540 ng·h/mL (female C57BL/6 mouse, plasma; intraperitoneal, 50 mg/kg).
`C/C(N)=N/C(=N\S(=O)(=O)c1ccc(C(F)(F)F)cc1)N1C[C@H](c2ccccc2)C(c2ccc(Cl)cc2)=N1` has an AUC(0-inf) of 106000 ng·h/mL (C57BL/6 mouse, liver; intravenous, 10 mg/kg).
`CCOC(=O)c1nc2cc(Cl)c(Cl)cc2nc1N1CCN(C(=O)Nc2ccc(N3CCNCC3)cc2)CC1` gave an AUC(0-inf) of 372 ng·h/mL (male mouse, plasma; oral, 10 mg/kg).
With `OCCn1nc(-c2ccccc2)c2c(Cl)c(-c3ccccc3)nnc21` the AUC(0-inf) was 1.71 µM·h (mouse, plasma; intraperitoneal, 3 mg/kg).
For `CCn1cc(-c2cc(Cn3ccnc3)cc3c2CCN([C@H](c2cc(OC)ccn2)C2CC2)C3=O)c(C(F)(F)F)n1`, the AUC(0-inf) was 20300 ng·h/mL (male CD-1 mouse, plasma; oral, 50 mg/kg).
With `CC[C@H](C)/C=C/C=C/C=C/C(O)=C/C(=O)C(Cl)(Cl)Cl` the AUC(0-inf) was 953 ng·h/mL (female C57BL/6 mouse, plasma; oral, 25 mg/kg).
With `COC(=O)C1=CNC=C(C(=O)OC)C1c1ccc(F)c(C(F)(F)F)c1` the AUC(0-inf) was 1350 ng·h/mL (male C57BL/6 mouse, plasma; intravenous, 2 mg/kg).
For `N#CCCC1CCN(C(=S)c2ccc(-c3cc(Cl)ccc3Cl)o2)CC1`, the AUC(0-inf) was 1250 ng·h/mL (male BALB/c mouse, plasma; intravenous, 5 mg/kg).
The AUC(0-inf) of `C[C@@H](Nc1nc2c(cnn2C(C)(C)C)c(=O)n1Cc1cccc(F)c1)c1ccc(Cl)cc1` is reported as 1680 ng·h/mL (C57BL/6 mouse, plasma; oral, 5 mg/kg).
`CC[C@H](C)[C@H](NC(=O)[C@H](Cc1ccccc1)NC(=O)[C@H](CCC(=O)O)NC(=O)[C@H](CCCCN)NC(=O)[C@H](C)NC(=O)[C@H](C)NC(=O)[C@H](CCC(N)=O)NC(=O)CNC(=O)[C@H](CCC(=O)O)NC(=O)[C@H](CC(C)C)NC(=O)[C@H](Cc1ccc(O)cc1)NC(=O)[C@H](CO)NC(=O)[C@H](CO)NC(=O)[C@@H](NC(=O)[C@H](CC(=O)O)NC(=O)[C@H](CO)NC(=O)[C@@H](NC(=O)[C@H](Cc1ccccc1)NC(=O)[C@@H](NC(=O)CNC(=O)[C@H](CCC(=O)O)NC(=O)[C@H](C)NC(=O)[C@@H](N)Cc1c[nH]cn1)[C@@H](C)O)[C@@H](C)O)C(C)C)C(=O)N[C@@H](C)C(=O)N[C@@H](Cc1c[nH]c2ccccc12)C(=O)N[C@@H](CC(C)C)C(=O)N[C@H](C(=O)N[C@@H](CCCNC(=N)N)C(=O)NCC(=O)N[C@@H](CCCNC(=N)N)C(=O)NCC(=O)O)C(C)C` has an AUC(0-inf) of 130 ng·h/mL (male CD-1 mouse, plasma; intravenous, 1 mg/kg, single dose).
`COc1ccccc1/C=C/CNCC(O)COc1ccc(Nc2ccccc2)cc1` (racemic) has an AUC(0-inf) of 54.4 ng·h/mL (mouse, plasma; oral, 10 mg/kg).

For quick reference, copied from above:
`CC[C@H](C)[C@@H]1NC(=O)[C@@](C)(NC(=O)[C@H](CCCNC(=N)N)NC(=O)[C@H](CC(C)C)NC(=O)[C@]2(C)CCCC=CCCC[C@](C)(NC(C)=O)C(=O)N[C@@H](CC(C)C)C(=O)N[C@@H](CCC(N)=O)C(=O)N2)CCCC=CCCC[C@@](C)(C(=O)N[C@@H](CC(C)C)C(=O)N[C@@H](Cc2ccc3ccccc3c2)C(=O)NCCC(=O)NCCC(N)=O)NC(=O)[C@H](CCCNC(=N)N)NC(=O)[C@H](CCC(N)=O)NC1=O` has an AUC(0-inf) of 996000 ng·h/mL (male BALB/c mouse, plasma; intraperitoneal, 30 mg/kg).
For `FC(F)(F)Oc1ccc2[nH]c(-c3ccc(OCCN4CCOCC4)cn3)nc2c1`, the AUC(0-inf) was 0.136 µM·h (mouse, plasma; intraperitoneal, 100 mg/kg).
With `Cc1cc(NCC(=O)C(C)(C)C)c2nc(N3CCOC[C@H]3C)cc(=O)n2c1` the AUC(0-inf) was 2340 ng·h/mL (C57BL/6 mouse, plasma; intraperitoneal, 10 mg/kg, single dose).
The AUC(0-inf) of `Cn1c2cc([S+](C)[O-])sc2c2cnn(Cc3cccc(N)c3)c(=O)c21` (centres unmarked) is reported as 24400 ng·h/mL (male BALB/c mouse, plasma; oral, 10 mg/kg, single dose).
